{"data": "Measured values gathered from unrelated publications", "note": "Every numbered part comes from another study and shows a few of its results, in no order.", "chain of UniProt P42336 (whole entry, unmodified, looked up)": "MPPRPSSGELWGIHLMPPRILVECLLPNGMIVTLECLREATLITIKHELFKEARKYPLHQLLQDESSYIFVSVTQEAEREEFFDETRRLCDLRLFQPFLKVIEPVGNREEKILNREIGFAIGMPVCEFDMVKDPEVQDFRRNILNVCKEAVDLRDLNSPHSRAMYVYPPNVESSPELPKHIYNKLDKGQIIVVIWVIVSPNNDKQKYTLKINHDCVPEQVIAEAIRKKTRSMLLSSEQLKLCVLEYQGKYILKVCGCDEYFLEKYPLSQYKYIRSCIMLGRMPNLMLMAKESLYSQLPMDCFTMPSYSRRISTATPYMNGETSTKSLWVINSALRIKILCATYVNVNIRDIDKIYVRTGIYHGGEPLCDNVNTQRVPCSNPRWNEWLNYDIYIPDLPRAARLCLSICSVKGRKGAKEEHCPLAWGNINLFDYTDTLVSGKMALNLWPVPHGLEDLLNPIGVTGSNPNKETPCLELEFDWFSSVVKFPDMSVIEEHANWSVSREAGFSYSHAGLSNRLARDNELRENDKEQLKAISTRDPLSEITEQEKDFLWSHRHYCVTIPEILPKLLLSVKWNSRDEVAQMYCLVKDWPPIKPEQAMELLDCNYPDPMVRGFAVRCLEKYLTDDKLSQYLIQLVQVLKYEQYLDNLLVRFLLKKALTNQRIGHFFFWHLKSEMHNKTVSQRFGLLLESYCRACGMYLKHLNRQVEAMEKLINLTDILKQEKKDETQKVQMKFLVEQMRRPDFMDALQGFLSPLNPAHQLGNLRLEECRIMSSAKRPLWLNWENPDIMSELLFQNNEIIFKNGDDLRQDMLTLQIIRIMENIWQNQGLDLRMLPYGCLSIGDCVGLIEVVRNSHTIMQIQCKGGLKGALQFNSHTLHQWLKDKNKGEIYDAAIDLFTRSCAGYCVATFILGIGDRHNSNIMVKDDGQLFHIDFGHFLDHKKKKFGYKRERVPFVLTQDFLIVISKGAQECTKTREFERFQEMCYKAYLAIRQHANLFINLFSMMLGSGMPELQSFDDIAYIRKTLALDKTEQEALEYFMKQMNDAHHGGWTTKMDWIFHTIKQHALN", "chain of UniProt Q6P2M8 (whole entry, looked up)": "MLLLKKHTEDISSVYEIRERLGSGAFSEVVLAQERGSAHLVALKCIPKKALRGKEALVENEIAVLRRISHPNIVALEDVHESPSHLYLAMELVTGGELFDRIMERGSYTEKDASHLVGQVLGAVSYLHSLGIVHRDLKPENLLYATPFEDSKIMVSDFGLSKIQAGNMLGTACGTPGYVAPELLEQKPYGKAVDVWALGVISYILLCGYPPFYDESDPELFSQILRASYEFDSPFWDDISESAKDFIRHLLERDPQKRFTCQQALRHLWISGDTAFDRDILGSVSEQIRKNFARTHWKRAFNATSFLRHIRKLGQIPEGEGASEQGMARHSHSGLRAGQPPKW", "chain of UniProt P37173 (whole entry, looked up)": "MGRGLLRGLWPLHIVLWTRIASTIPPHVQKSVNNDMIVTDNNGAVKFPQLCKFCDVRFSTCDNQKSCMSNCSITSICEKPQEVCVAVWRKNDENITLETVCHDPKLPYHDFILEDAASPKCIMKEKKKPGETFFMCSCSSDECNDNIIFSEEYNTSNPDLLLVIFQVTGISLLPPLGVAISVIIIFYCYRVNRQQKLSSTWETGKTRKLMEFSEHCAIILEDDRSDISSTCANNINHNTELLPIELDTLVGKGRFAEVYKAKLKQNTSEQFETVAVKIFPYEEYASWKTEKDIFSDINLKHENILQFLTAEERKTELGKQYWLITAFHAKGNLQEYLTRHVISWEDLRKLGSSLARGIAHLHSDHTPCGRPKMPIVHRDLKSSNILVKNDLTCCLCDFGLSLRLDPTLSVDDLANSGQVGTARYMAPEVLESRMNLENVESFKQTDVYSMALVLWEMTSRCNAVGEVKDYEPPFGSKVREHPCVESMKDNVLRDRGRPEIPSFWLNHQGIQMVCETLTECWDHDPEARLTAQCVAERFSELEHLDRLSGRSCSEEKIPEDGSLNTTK", "chain of UniProt Q8TDX7 (whole entry, looked up)": "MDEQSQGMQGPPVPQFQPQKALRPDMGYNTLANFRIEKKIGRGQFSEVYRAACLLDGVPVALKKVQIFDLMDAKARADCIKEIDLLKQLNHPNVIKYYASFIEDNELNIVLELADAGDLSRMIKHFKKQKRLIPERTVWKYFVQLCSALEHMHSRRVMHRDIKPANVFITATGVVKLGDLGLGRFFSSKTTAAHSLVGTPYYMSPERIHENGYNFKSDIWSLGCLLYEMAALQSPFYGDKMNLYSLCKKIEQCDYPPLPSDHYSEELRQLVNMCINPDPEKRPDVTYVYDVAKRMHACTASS", "chain of UniProt P06241 (whole entry, looked up)": "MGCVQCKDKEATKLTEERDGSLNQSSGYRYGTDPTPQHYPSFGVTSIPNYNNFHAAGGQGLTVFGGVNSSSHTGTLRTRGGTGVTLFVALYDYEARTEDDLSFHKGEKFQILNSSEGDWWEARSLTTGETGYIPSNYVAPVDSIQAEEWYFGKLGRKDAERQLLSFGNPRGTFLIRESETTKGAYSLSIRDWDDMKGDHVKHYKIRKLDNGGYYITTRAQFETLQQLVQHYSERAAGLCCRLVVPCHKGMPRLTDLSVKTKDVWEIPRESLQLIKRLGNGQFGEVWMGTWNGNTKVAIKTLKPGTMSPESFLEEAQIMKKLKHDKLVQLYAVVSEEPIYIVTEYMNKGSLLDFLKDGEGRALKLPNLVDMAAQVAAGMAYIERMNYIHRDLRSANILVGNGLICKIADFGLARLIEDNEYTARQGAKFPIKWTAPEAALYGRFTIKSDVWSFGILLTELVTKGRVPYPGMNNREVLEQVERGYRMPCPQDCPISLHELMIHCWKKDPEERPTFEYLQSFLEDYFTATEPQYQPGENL", "chain of UniProt Q13043 (whole entry, looked up)": "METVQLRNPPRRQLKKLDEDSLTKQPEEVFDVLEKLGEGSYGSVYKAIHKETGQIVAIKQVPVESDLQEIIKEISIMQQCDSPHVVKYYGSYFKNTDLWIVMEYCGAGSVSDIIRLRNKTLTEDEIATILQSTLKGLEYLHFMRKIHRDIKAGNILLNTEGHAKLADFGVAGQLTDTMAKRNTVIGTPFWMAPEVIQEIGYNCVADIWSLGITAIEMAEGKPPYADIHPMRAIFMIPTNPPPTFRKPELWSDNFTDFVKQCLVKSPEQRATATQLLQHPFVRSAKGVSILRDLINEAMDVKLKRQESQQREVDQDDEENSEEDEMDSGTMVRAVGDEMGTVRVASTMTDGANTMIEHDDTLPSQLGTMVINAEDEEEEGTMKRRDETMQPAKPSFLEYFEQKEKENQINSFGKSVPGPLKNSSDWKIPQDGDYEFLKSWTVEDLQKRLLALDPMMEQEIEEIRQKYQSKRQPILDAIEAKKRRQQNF", "chain of UniProt P11802 (whole entry, looked up)": "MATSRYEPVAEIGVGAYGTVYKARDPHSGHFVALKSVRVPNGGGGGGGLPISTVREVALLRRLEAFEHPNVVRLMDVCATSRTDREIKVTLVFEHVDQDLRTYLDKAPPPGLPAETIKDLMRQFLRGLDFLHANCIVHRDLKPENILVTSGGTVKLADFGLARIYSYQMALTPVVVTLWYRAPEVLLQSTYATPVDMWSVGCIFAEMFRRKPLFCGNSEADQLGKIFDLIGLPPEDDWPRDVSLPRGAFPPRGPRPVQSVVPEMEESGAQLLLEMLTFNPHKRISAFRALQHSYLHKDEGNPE", "chain of UniProt P54760 (whole entry, looked up)": "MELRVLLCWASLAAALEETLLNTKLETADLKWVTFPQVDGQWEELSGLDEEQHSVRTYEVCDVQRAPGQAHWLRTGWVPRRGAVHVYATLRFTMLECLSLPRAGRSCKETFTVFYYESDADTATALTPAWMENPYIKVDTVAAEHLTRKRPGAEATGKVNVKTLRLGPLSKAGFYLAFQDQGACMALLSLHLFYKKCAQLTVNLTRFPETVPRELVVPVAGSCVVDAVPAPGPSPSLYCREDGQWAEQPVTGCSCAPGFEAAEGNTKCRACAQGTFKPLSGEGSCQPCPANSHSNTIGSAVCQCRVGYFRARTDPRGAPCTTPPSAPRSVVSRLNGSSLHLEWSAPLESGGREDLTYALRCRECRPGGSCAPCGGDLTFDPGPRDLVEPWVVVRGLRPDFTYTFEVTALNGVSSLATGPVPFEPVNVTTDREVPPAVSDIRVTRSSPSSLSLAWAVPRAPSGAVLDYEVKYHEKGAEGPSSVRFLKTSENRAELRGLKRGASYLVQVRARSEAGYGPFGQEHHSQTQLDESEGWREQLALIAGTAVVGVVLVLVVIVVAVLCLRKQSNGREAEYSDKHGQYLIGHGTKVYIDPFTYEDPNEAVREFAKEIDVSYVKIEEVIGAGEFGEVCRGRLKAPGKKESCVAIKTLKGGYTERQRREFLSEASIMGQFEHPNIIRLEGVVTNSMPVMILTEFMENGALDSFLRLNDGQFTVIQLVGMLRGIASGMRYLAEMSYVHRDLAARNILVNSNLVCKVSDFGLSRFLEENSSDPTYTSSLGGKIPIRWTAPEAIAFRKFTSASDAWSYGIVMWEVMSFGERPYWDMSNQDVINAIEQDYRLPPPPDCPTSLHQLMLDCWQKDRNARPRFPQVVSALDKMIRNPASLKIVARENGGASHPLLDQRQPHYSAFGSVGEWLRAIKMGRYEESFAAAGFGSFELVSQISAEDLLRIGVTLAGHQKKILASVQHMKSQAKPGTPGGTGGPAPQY", "chain of UniProt Q14012 (whole entry, looked up)": "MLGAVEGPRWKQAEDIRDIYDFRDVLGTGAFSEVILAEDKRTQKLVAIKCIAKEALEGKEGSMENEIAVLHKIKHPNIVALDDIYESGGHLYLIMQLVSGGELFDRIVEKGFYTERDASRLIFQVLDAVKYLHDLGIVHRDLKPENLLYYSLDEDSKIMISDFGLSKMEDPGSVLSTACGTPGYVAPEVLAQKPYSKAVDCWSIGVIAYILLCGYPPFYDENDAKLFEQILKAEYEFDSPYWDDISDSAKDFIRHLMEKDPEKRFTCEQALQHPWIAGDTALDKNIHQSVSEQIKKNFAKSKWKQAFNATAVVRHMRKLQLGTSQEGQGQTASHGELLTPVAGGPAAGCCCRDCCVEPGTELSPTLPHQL"}
{"data": "Study 1", "species": "human", "sample": "microsomes or S9", "tested at": "2 µM", "time": "0.5 h"}
{"SMILES": "COc1cc(=O)n(C)cc1C(=O)NCCCNC(=O)OC(C)(C)C", "remaining compound": "> 99%"}
{"SMILES": "Cc1cccc(-c2c(-n3cncn3)nc3ccccc3c2O)c1", "remaining compound": "88.3%"}
{"SMILES": "c1ccc(-n2nnnc2Oc2ccc(-c3nc4ccccc4s3)cc2)cc1", "remaining compound": "> 100%"}
{"SMILES": "Cc1cc(Oc2ccc(-n3cncn3)cc2)nc(C)n1", "remaining compound": "78.4%"}
{"SMILES": "O=c1ccc(-c2ccc(S(=O)(=O)NCCCN3CCN(c4ccccc4)CC3)s2)n[nH]1", "remaining compound": "45.8%"}
{"data": "Study 2", "cell line": "HaCaT", "tested at": "100 µM", "time": "36 h"}
{"SMILES": "O=C(OC1C[C@@H]2CC3C[C@H](C1)N2CC3=O)c1c[nH]c2ccccc12 (some centres unmarked)", "viability [%]": 40.4}
{"SMILES": "Oc1ccc(O)cc1", "viability [%]": 8.19}
{"SMILES": "Nc1cc(F)ccc1NC(=O)c1ccc(CNC(=O)/C=C/c2cccnc2)cc1", "viability [%]": 6.75}
{"SMILES": "CCN1CCN(C(=O)N[C@@H](C(=O)N[C@@H]2C(=O)N3[C@@H]2SC(C)(C)[C@@H]3C(=O)O)c2ccccc2)C(=O)C1=O", "viability [%]": 93}
{"SMILES": "COc1ccc(-c2cc(=S)ss2)cc1", "viability [%]": 69}
{"SMILES": "C[C@H]1COc2c(C3(N)CC3)c(F)cc3c(=O)c(C(=O)O)cn1c23", "viability [%]": 78.3}
{"SMILES": "Cc1cncc(CN2CCC(=C3c4ccc(Cl)cc4CCc4cccnc43)CC2)c1", "viability [%]": 5.38}
{"data": "Study 3", "SMILES": "CCS(=O)(=O)c1cc2cc(C[C@](O)(CC(C)(C)c3ccc(F)cc3C(N)=O)C(F)(F)F)[nH]c2cn1", "effect on": "cell-free assay", "technique": "competition with immobilised ligand", "tested at": "1 µM"}
{"target": "STK3 (Homo sapiens, UniProt Q13188)", "remaining binding": "97%"}
{"target": "TNK1 (Homo sapiens, UniProt Q13470)", "remaining binding": "98%"}
{"target": "TGFBR2 (Homo sapiens, UniProt P37173)", "remaining binding": "100%"}
{"target": "CAMK1 (Homo sapiens, UniProt Q14012)", "remaining binding": "86%"}
{"target": "PNCK (Homo sapiens, UniProt Q6P2M8)", "remaining binding": "77%"}
{"target": "DDR1 (Homo sapiens, UniProt Q08345)", "remaining binding": "94%"}
{"target": "PIK3CA (Homo sapiens, UniProt P42336, C420R)", "remaining binding": "95%"}
{"target": "DCLK1 (Homo sapiens, UniProt O15075)", "remaining binding": "99%"}
{"target": "EPHB4 (Homo sapiens, UniProt P54760)", "remaining binding": "100%"}
{"target": "DYRK1A (Homo sapiens, UniProt Q13627)", "remaining binding": "100%"}
{"target": "TNNI3K (Homo sapiens, UniProt Q59H18)", "remaining binding": "80%"}
{"target": "NEK7 (Homo sapiens, UniProt Q8TDX7)", "remaining binding": "100%"}
{"target": "STK4 (Homo sapiens, UniProt Q13043)", "remaining binding": "100%"}
{"target": "Cyclin-dependent kinase 4, with cyclin D1 (CDK4, Homo sapiens, UniProt P11802)", "remaining binding": "96%"}
{"target": "FYN (Homo sapiens, UniProt P06241)", "remaining binding": "77%"}
{"target": "MAP3K14 (Homo sapiens, UniProt Q99558)", "remaining binding": "88%"}
{"data": "Study 4", "SMILES": "CC(C)n1cnc(-c2ccc(F)cc2)c1-c1ncc(C(=O)Nc2ccc(N3CCN(C)CC3)cc2)[nH]1", "technique": "phase 2a trial", "species": "idiopathic pulmonary fibrosis patients"}
{"conditions": "30 mg once daily, adverse event grade 3", "patients with cholecystitis [%]": 0}
{"conditions": "dose not given, adverse event grade 1, all dose arms pooled", "patients with cholecystitis [%]": 0}
{"conditions": "30 mg once daily, adverse event grade 5", "patients with cholecystitis [%]": 0}
{"conditions": "dose not given, adverse event grade 4, all dose arms pooled", "patients with cholecystitis [%]": 0}
{"conditions": "60 mg once daily, adverse event grade 4", "patients with cholecystitis [%]": 0}
{"conditions": "dose not given, adverse event grade 2, all dose arms pooled", "patients with cholecystitis [%]": 0}
{"conditions": "dose not given, adverse event grade 5, all dose arms pooled", "patients with cholecystitis [%]": 0}
{"note": "Repeated from above (study 2):"}
{"SMILES": "Oc1ccc(O)cc1", "viability [%]": 8.19}
{"SMILES": "Nc1cc(F)ccc1NC(=O)c1ccc(CNC(=O)/C=C/c2cccnc2)cc1", "viability [%]": 6.75}
{"SMILES": "CCN1CCN(C(=O)N[C@@H](C(=O)N[C@@H]2C(=O)N3[C@@H]2SC(C)(C)[C@@H]3C(=O)O)c2ccccc2)C(=O)C1=O", "viability [%]": 93}
{"SMILES": "COc1ccc(-c2cc(=S)ss2)cc1", "viability [%]": 69}
{"SMILES": "C[C@H]1COc2c(C3(N)CC3)c(F)cc3c(=O)c(C(=O)O)cn1c23", "viability [%]": 78.3}
